Experimental data of several laboratories.
Lines come from different studies, so protocols differ. “And” joins repeats or separate records; there may be more than shown. ± gives the spread as reported.

The LD50 of `COc1cc2c(c(OC)c1OC)-c1c(cc3c(c1OC)OCO3)CC(C)C(C)C2` (stereo not drawn) is reported as 200 µM and > 200 µM (HepG2; LDH release; 48 h, with: glutathione 5 mM).
`C[C@H](Cn1cnc2c(N)ncnc21)OCP(=O)(O)O` has an intracellular concentration of 0.32 ± 0.07 ng/mL (hCMEC/D3; 5 µM, 1 h, in antiretroviral combination).
Under “minimum cytotoxic concentration”, `O=Cc1cc(Cn2cc(F)c(=O)[nH]c2=O)ccc1O` is recorded as over 100 µM (HEL fibroblasts; cell morphology alteration).
With `O=C(Cc1ccccc1Nc1c(Cl)cccc1Cl)Oc1ccc(-c2cc(=S)ss2)cc1` the IC50 was 16 µM (HepG2 and LS180; EROD activity, inhibitor; 24 h, averaged over cell lines, with: DMBA 1 µM).
For `CC(=O)c1cc(-c2cc(C(=O)NC3CC3)ccc2C)c2ncccn12`, the nonspecific binding was 65% (MDA-MB-231; trypsin-EDTA digestion vs solvent extraction; concentration not given, 6 h).
`Cc1[nH]ccc2c1[nH]c1cc(=O)ccc12`: “lowest cytotoxic concentration” over 10 µM (U87 cells; nuclear area and membrane integrity, high content imaging; 72 h).
`O=C(CNS(=O)(=O)NCc1cccc(Oc2ccccc2)c1)NCCN1CCOCC1` has a TD50 of 165 ± 15 µM (HG23 norovirus replicon cells; 48 h).
The intracellular concentration of `C[C@@H]1CCO[C@H]2Cn3cc(C(=O)NCc4ccc(F)cc4F)c(=O)c(O)c3C(=O)N12` is reported as 48.6 ± 5.04 ng/mL (hCMEC/D3; 10 µM, 1 h).
For `CCCCC(CC)COC(=O)c1ccccc1C(=O)OCC(CC)CCCC` (stereo not drawn), “mitochondrial membrane permeability” read “decreased” (TK6; 234 µM, 48 h, with: reduced glutathione 500 µM).
Under “point of departure”, `c1ccc2c(c1)Cc1ccccc1-2` is recorded as under 30 µM (human iPSC-derived cardiomyocytes; mitochondrial membrane potential, item: JC-10 granules; 30 min).
`COCCN1C(N)=NC(N)=NC12CCN(C(=O)NC1CCC(C)CC1)CC2` (stereo not drawn): “minimum cytotoxic concentration” over 100 µM (MDCK; microscopy, altered cell morphology).
`Cl.O=C(CNS(=O)(=O)NCc1cccc(Oc2ccccc2)c1)N1CCN(Cc2ccccc2)CC1` has a TD50 of 120 ± 14 µM (HG23 norovirus replicon cells; 48 h).

A few entries again:
`C[C@H](Cn1cnc2c(N)ncnc21)OCP(=O)(O)O` has an intracellular concentration of 0.32 ± 0.07 ng/mL (hCMEC/D3; 5 µM, 1 h, in antiretroviral combination).
